Measured values of several laboratories.
Parts stem from different laboratories: compare values within a part only.

Sample 1 — method: protein binding microarray; form: double-stranded DNA, one strand shown; matrix: in vitro; concentration: not given; baseline: not given; reading: higher = stronger binding; quantity: E-score
Target: Histone acetyltransferase KAT6A, both winged helices, GST fusion (KAT6A, Homo sapiens, UniProt Q92794, residues 1-181)
Setting: 8-mer, flanks averaged, mean of 2 arrays, mostly near background
Construct (chain): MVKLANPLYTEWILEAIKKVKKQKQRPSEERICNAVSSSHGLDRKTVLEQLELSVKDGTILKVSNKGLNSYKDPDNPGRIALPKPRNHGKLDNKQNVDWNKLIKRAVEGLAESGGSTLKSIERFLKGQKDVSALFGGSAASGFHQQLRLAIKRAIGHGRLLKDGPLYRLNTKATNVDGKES
Oligonucleotide = AGAGACTG; value = -0.0934
Oligonucleotide = GTGGACTA; value = -0.115
Oligonucleotide = GGAAGCCA; value = -0.0437
Oligonucleotide = TATTACGA; value = -0.00295
Oligonucleotide = AAAAAAAA; value = 0.00336
Oligonucleotide = CTCCCCTA; value = -0.152
Oligonucleotide = AGACCACG; value = -0.113
Oligonucleotide = AGCCGGCT; value = 0.228
Oligonucleotide = CTGTCCAA; value = -0.027
Oligonucleotide = CTAAGCTA; value = -0.141
Oligonucleotide = ATGGCTAA; value = -0.1
Oligonucleotide = ATAGGCAG; value = -0.185
Oligonucleotide = ATTCTATA; value = 0.0251
Oligonucleotide = CCGAGACC; value = 0.158
Oligonucleotide = AATGCATT; value = -0.0639
Oligonucleotide = TCAGCCAA; value = -0.153
Oligonucleotide = GCACGACA; value = -0.0286
Oligonucleotide = AGGCTACT; value = -0.215
Oligonucleotide = ACTAGTCG; value = -0.0898
Oligonucleotide = CGAGCTGC; value = -0.0145
Oligonucleotide = CCAATCTC; value = -0.308

Sample 2 — method: RNA Bind-n-Seq; form: RNA; matrix: in vitro; concentration: not given; baseline: input RNA pool; reading: higher = stronger binding; quantity: bound/input enrichment
Target: RING finger protein unkempt homolog, zinc fingers 1-6, GST-SBP tag (UNK, Homo sapiens, UniProt Q9C0B0, residues 30-357)
UniProt Q9C0B0, sequence (30-357, looked up): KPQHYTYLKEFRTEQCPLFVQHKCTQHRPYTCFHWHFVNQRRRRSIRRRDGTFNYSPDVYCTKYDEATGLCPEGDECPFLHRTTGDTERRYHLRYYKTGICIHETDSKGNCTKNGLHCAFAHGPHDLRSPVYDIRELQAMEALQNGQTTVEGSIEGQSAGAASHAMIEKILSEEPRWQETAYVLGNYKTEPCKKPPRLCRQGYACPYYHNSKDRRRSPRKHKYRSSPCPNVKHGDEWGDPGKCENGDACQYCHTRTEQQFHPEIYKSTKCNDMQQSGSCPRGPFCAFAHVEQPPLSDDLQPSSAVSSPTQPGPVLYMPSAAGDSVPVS
Setting: RNA with constant flanks, human and mouse sites, ends assumed
Shared flanks, not repeated: GGGAGUUCUACAGUCCGACGAUC … CAACAGAGGAUUGAGCAUCA
Oligonucleotide = GAAAUUUCCUUGUAUAUCCCCAAAAUGCUAACUGAAGAACGCCAUCUUCAUGAACUUGACAUAGUGCCUCCUUUACCUUUUUUUCCUAAGGCUCACACCGAAACCUCCAGGGCCAAGUGA; value = 0.46 ratio
Oligonucleotide = CAACAGACCUGCCCACUGUGCAAGUUCAACGUCCUGGGGAACCACUACUCAGAUGACUAACUGCCCCAGUGGAAAGUCUGCAGUUCGGGACGGACCCUUCCCAGCCUACACUACAGGAGA; value = 0.112 ratio
Oligonucleotide = AAACCAGGAAGAAAAGGUAUUUCUUUAAAUCCAGAACAAUGGAGCCAGCUGAAGGAACAGAUUUCUGACAUUGAUGAUGCAGUAAGAAAACUGUAAAAUUCGAGCCAUAUAAAUAAAACC; value = 0.205 ratio
Oligonucleotide = AGGAUUAAUCUUAAGGAUUGUAUAAUUCAUUAAAGCUGUGGUCUUUCCAUGUGGAGACUGAUAGAAAAUAAUUUUGUCCCAAGUCUUAUUUGCUGACUUUUUCUGUCAUGAGUGAGAUUG; value = 0.293 ratio
Oligonucleotide = GCAGAGUCACAUGGCGACAAAAAGAAAGAACCAGUAAAUGGCUGUAAUACAGGAAUUUUGCCACAACCAGUUGGGACAGUCUUGUUGCAAAUACCAGAACCUCAAGAAUCGAACAGUGAC; value = 0.162 ratio
Oligonucleotide = GUGGGAGAGUGGGGAGCCCGUCUUCUGCUGAGUGCUGCCGCCCCUUCCCAGGACAGCGGAGGUGGAACUUCGUCGCGCUGCAACCCCCGGCUCGGGAUCCUGGGGCGUCCUUUGGCAGUC; value = 0.138 ratio
Oligonucleotide = GUACUAUGUCAAAUCCUAUCUCAAUAAAUAGCAAUUCAUUUAACUCUCUUAGCUGCUUUUUAGGUAGAUAUGUCUUUGUGCCCACUUUAUACAAGAGGCAGCUAAAAGAGUAUAGCAGUA; value = 11.8 ratio
Oligonucleotide = CAACCACUGACUGUGGGCUCUUGACUUUCCUAAGCAAUAUCGUGAUGGAGAAAAGUCAUUAUAACUUGAGAUUUGGUCUCUAUGGGAACAGACAAUGGCCCAUUCAGGCCUGCUGCUGAC; value = 0.117 ratio

Sample 3 — method: RNA Bind-n-Seq; form: RNA; matrix: in vitro; concentration: 365 nM; baseline: no-protein control; reading: higher = stronger binding; quantity: RBNS enrichment (R)
Target: RNA binding protein fox-1 homolog 2, RRM domain, GST-SBP tag (RBFOX2, Homo sapiens, UniProt O43251-10, residues 100-194)
Setting: natural RNA segment, single round, ends assumed
Shared flanks, not repeated: GGGAGUUCUACAGUCCGACGAUC … UGGAAUUCUCGGGUGCCAA
Construct (chain): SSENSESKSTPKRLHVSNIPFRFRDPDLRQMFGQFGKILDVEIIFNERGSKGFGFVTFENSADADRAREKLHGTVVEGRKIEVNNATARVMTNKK
Oligonucleotide = GGUCCAGGUGGGAGUACAAGGAAGGCUGCUUCUACACCCAUGAGCACAAAUACGUCUGUGUGGGACAGUCCACUGAACGUCGUCAUUUAGUCCAGCCCAUUGCAGGCAUU; value = 0.547
Oligonucleotide = UGACCACCUGUAACUCCUGUUCCAAAGGUUUCGAUACCUUCUGACCUCUGGGCACCAGGCGUGCACAUGGUAUACAGACAUAGGUGCAGACAAAACAUCUAUACGUACAG; value = 0.224
Oligonucleotide = AUCACCUUGCCUUCCUCUCUAGCAUUCUGCAGGAGUGAUGCCCACGGAGCCUUGGGCUUCUGCGUGUUGCCUGACUGUACAAAAGUCUAGUCUCAAAGAUCAAGUUGGUC; value = 0.549
Oligonucleotide = GCCCUGGCUAUAUAUUAUAUUGGGCCAUAGAGAUCAGCAAUGUAUCAAUUAAUAGAUUAAUCCAGAGACAGGAAGGAGGAAACGAAAGCUAGAGCCUCUUUGUGACUCCA; value = 0.36
Oligonucleotide = AGAAGGAAAGGAGGAAGAAAUGUUUUCUUAGGGGAAUUCGCUAGGUUUUAACGAUUUGUUUCUCCUGCUCCUCUUCUGUCAGACCUGACCCCACACAAACCUGUCCCCUC; value = 0.267
Oligonucleotide = UAAUCACUGUGACCUCUGAAUUUUCAAGUAUAGGCCAAAUGAGCCAAGUAACUUGGCUGUGAAAUGGCAGAAGGAACCUUCUCUCAAGCAGGUAGGUCAAGAGAUGGGCC; value = 0.285
Oligonucleotide = GGCUUUAUAGUAAAUUUGUUUCUAAAUCUAAUAACUUUAAAAUAGAAACUUAAGUAAAUAUGGCUUACACCCUAACACUGGGGUGGUUUUCUUUUCUAAUGUAGCUUUCC; value = 0.339
Oligonucleotide = GCUGGAUGUCGCAUUGCAUGUUUGCUGAGUCCUCCUCAUUGCUGAUGUUAGGAUCCUUCAACAGUUUCUCAGAUGCCAGCUAUGGCUGGCAUCCAGUAUGGUGGUGUAAU; value = 26.5

Sample 4 — method: protein-binding microarray; form: double-stranded DNA, one strand shown; matrix: in vitro; concentration: not given; reading: higher = stronger binding; quantity: E-score
Target: Myc proto-oncogene protein, bHLH-zipper, MAX partner unstated (MYC, Homo sapiens, UniProt P01106, residues 368-449)
UniProt P01106, sequence (368-449, looked up): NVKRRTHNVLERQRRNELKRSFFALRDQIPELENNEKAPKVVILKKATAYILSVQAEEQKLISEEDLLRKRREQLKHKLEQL
Setting: k-mer, scored over probes, only values ≥0.25
Oligonucleotide = GCGTGCTA; value = 0.432
Oligonucleotide = CATGTTGC; value = 0.387
Oligonucleotide = ATGGGGAG; value = 0.25
Oligonucleotide = AACGTGCA; value = 0.387
Oligonucleotide = ATGGCATC; value = 0.277
Oligonucleotide = CCACGTCG; value = 0.332
Oligonucleotide = GCATGGGC; value = 0.388
Oligonucleotide = CCACGTGA; value = 0.482
Oligonucleotide = CACGCTCC; value = 0.37
Oligonucleotide = GCGTGAGA; value = 0.27
Oligonucleotide = AAACGTGT; value = 0.372
Oligonucleotide = CGAGCACG; value = 0.348
Oligonucleotide = CCCACCCA; value = 0.319
Oligonucleotide = AACATGCA; value = 0.312
Oligonucleotide = GCACGCGC; value = 0.461

A few entries again (sample 4):
Oligonucleotide = AAACGTGT; value = 0.372
Oligonucleotide = CGAGCACG; value = 0.348
Oligonucleotide = CCCACCCA; value = 0.319
